Measured values pooled from the literature.
Every numbered part comes from another study and shows a few of its results, in no order. Substitutions count along the parent as printed.

Study 1 — method: universal PBM; form: double-stranded DNA, one strand shown; matrix: in vitro; tested at: 600 nM; reading: higher = stronger binding
Target: Sal-like protein 4, full length isoform A (SALL4, Homo sapiens, UniProt Q9UJQ4, residues 1-1053)
Chain of UniProt Q9UJQ4 (whole entry, looked up): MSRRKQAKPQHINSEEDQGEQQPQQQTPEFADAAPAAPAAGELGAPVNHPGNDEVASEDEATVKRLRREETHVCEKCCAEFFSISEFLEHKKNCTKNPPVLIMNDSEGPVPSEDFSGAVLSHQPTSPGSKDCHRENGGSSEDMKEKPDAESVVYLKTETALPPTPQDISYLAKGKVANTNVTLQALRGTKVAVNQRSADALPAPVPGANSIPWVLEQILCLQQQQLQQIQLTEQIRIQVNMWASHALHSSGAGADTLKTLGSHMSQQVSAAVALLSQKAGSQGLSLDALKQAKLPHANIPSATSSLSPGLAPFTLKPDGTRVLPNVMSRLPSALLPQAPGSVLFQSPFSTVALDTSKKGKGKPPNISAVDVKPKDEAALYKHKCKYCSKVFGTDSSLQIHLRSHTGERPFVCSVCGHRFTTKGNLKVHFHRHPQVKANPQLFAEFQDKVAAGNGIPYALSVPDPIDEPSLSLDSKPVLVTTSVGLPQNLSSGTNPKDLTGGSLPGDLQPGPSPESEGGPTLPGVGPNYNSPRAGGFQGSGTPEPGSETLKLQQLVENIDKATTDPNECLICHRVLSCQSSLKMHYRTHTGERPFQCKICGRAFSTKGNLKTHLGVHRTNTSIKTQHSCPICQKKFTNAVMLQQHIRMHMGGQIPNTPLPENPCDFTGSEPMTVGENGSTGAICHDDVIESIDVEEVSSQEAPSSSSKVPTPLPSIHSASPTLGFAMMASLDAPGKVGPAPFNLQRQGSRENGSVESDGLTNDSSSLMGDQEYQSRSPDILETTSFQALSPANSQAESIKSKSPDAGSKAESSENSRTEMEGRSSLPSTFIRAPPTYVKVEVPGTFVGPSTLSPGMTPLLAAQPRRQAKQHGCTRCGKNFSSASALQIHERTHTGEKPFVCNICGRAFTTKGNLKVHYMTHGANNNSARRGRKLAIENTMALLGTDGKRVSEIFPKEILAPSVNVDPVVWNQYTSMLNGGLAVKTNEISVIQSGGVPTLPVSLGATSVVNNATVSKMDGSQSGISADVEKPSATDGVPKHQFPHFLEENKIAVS
Notes: 8-mer, flanks averaged, mean of replicates
Oligonucleotide	E-score
GAGAATGC	-0.0759
GCACCTTA	0.022
CCGTTCAC	-0.227
ACTCTCCC	-0.0635
ATACTAGA	0.234
GGCGGACA	-0.276
ATAGCACG	-0.00328
ACGGATGC	-0.0245
AGCATAGC	0.105
CCCAGTGA	-0.295
TAGGATCA	0.0278
CAGCACAA	-0.0144
GAATACAA	0.209
ACAAATCC	0.0872
AGTGATAC	0.0851

Study 2 — method: RNA Bind-n-Seq; form: RNA; matrix: in vitro; tested at: not given; reference: input RNA pool; reading: higher = stronger binding
Target: RING finger protein unkempt homolog, zinc fingers 1-6, GST-SBP tag (UNK, Homo sapiens, UniProt Q9C0B0, residues 30-357)
Chain of UniProt Q9C0B0 (30-357, looked up): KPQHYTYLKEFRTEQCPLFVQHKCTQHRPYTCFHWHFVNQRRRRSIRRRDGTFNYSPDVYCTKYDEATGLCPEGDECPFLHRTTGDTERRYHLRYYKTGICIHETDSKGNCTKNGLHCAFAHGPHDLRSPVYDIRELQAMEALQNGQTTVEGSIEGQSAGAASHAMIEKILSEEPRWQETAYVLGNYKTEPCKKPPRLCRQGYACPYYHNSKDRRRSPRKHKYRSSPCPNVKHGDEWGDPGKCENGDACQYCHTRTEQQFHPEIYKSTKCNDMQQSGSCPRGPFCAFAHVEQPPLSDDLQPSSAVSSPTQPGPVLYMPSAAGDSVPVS
Notes: RNA with constant flanks, human-mouse chimeric sites, ends assumed
Shared flanks, not repeated: GGGAGUUCUACAGUCCGACGAUC … CAACAGAGGAUUGAGCAUCA
Oligonucleotide	bound/input enrichment [ratio]
UUGAAAAACACAGAUAUCAAAGUUGUUGACUUUGGAAGUGCAACGUAUGAUGAUGAACAUCAUAGUACUUUGGUGUCUACCCGGCACUACAGAGCUCCCGAGGUCAUUUUGGCUUUAGGU	0.481
GCGGCAGAAUCAUGGAGGACAUAAUGCAGCUCCCCAAAGCGCGCGUCAACGCCAGCAUGUUACCACAGUAUAUCGACAAGCCUGUCUGCUUCGUAGGGAAGCUGGAAAAGAUUCAUCCCA	0.16
UGUAGUUUCUUGAUUUAUCAUUUUUCUCUUUUCUUUCAGAUCGUCAGGAAAAGCCUAAAGAUUAGGUUGUAAGAAAAACAGAAGCCAGCCAUGUUUCACCUGUGUUACAGGUAUUUCGUC	0.605
GGAAUUGCUGAUUCAAGUAAGUUUGAGUAUCACAAUGUUAGCUUUCUAAUUCCAUAAAGAUAGUUUUUUUUUACAGUUUAUAAUCUGACAUCACCCCAGCGCCAUUUGUAAAGAGCAACU	6.58
CUUCGGAAAAAAAAAUUACAGGAAAAUACAGUGCUUUCCCUCCCAUAGAUCCACGUUCAAGCUCAAAGAGCAAAGGCUUUGCACGGAGCUCAAACAUCUGAUGAAGAAAGAUUUCUGAGA	0.5
UUGAAAACUGAUUCAAGUAAGUUUGAGUAUCACAAUGUUAGCUUUCUAAUUCCAUAAAGAUAGUUUUUUUUUACAGUUUAUAAUCUGACAUCACCCCCCGUUUAUAAGUAAAGAGCAACU	7.81
CCAAUUGUGGAGCAGUACUUGAAGACAAAAAAGAACUCUAAUAAUUUAAUCAUCAAGUACAUUAGCUGCCGCCUGCUGACACUCAUCAUUAUACUGUUAGCGUGUAUCUACCUGGGCUAU	0.462
UAAGUCCUGUGCCAGCAAUUUAUCCCAAAAGUUUUAAAUUCUGGACCAAUAGUGUUUGUUUCCUGAUUUUUGUAUUCAAUACUUUGCCUAGUAUGUAACUCACUCUUACUGAUAAUAAAA	1.76
GUACUGCAGCAGCAGGGCAAGCUGCAGGAAGCACUGAUGCAUUAUAAGGAGGCUAUUCGAAUCAGUCCUACCUUUGCUGAUGCCUACUCUAAUAUGGGAAACACUCUAAAGGAGAUGCAG	0.362
GGGACUGAUUCAUCCCAAGGACAGGCCACCCCAUUUGAUGCCUGGACUGACGACAGUAUGGAAGGGCCUAGUCAAAAUGUUGAAGCUGAGUCAAUUCAGGAUGCCAUGAGUAUGGAAGAG	0.352
AGAAUCUUGGGACUGUUUUACUUAAUUGGUCAUUGAUAUCUCAACAAGCAUGGAGAUAAGAUUAGAAAUCUUGACAUCAACAGGUAUUAAGCAGAAAAAACCAUGGCCACGUGUCUCCUG	0.141

Study 3 — target: UBE2E1 UBC core domain (UniProt P51965); method: yeast two-hybrid; matrix: yeast; notes: mostly zero background; reference: not given; reading: higher = stronger interaction
Chain of UniProt P51965 (whole entry, looked up): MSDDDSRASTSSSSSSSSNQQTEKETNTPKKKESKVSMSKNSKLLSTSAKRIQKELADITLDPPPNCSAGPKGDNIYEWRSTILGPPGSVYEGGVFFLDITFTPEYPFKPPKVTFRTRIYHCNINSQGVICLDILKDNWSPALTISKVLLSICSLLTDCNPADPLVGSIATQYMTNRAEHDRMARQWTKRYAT
B1: RNF7 RING domain (UniProt Q9UBF6); chain AICRVQVMDACLRCQAENKQEDCVVVWGECNHSFHNCCMSLWVKQNNRCPLCQQDWVVQRIGK
B2: SHPRH RING domain (UniProt Q149N8); chain KTSGGVNPEPCPICARQLGKQWAVLTCGHCFCNECISIIIEQYSVGSHRSSIKCAICRQTTSHKEISY
B3: RNF10 RING domain (UniProt Q8N5U6); chain VRICSHEVPSCPICLYPPTAAKITRCGHIFCWACILHYLSLSEKTWSKCPICYSSVHKKDLKS
B4: TRIM2 RING domain (UniProt Q9C040); chain VRQIDKQFLICSICLERYKNPKVLPCLHTFCERCLQNYIPAHSLTLSCPVCRQTSILPEKGV
B5: RFPL3 RING domain (UniProt O75679); chain MAALFQEASSCPVCSDYLEKPMSLECGCTVCLKCINSLQKEPHGEDLLCCCCSMVSQRNKIRP
B6: PJA2 RING domain (UniProt O43164); chain DHTAIGQEQCCPICCSEYIKDDIATELPCHHFFHKPCVSIWLQKSGTCPVCRRHFPPAVIEA
Molecule	lacZ reporter activity
B1 (RNF7 RING domain)	0
AAQLLEEKLTCAICLGLYQDPVTLPCGHNFCGACIRDWWDRCGKACPECREPFPDGAELR (TRIM65 RING domain (UniProt Q6PJ69))	0
B2 (SHPRH RING domain)	0
B3 (RNF10 RING domain)	0
B4 (TRIM2 RING domain)	0
B5 (RFPL3 RING domain)	0
EIKDYKARLTCPCCNMRKKDAVLTKCFHVFCFECVKTRYDTRQRKCPKCNAAFGANDFHR (RNF20 RING domain (UniProt Q5VTR2))	0
EDVLSKDAGECAICLEELQQGDTIARLPCLCIYHKGCIDEWFEVNRSCPEHPSD (ZNRF2 RING domain (UniProt Q8NHG8))	0
B6 (PJA2 RING domain)	2470

Study 4 — target: CCND1, cyclin fold, Cln2 fusion (human); method: yeast growth competition, sequencing; matrix: yeast; notes: weak parent motif; reference: not given; reading: higher = stronger binding
Starting sequence: DTL docking peptide (human); PSSMRKICTYFHR; partner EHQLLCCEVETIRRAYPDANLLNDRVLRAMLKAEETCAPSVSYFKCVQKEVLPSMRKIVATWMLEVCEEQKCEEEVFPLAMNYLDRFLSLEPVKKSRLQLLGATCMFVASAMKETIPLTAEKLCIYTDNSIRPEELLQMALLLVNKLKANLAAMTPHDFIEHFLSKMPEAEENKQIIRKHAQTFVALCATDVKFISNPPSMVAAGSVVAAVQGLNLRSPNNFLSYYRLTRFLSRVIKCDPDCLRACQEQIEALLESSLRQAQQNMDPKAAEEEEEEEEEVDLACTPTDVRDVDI
Change	normalised enrichment score
F11A	0.0405
S2A	0.516
M4A	0.593
T9A	0.516
S3A	0.618
C8A	0.497
H12A	0.838

A few entries again (study 4):
Change	normalised enrichment score
F11A	0.0405
S2A	0.516
M4A	0.593
T9A	0.516
S3A	0.618
C8A	0.497
